Measurements of several laboratories.
Numbered parts are unrelated; each lists some results of a single study. Several values in a cell are separate wells, animals, samples, runs or records.

Series 1
Target: TAR DNA-binding protein 43, full length, His tag (TARDBP, Homo sapiens, UniProt Q13148, residues 1-414)
Method: RNA Bind-n-Seq
Form: RNA
Medium: in vitro
Concentration: 20 nM
Notes: 6-mer, flanks averaged, single round
Together with: 150 mM KCl
Reference: input library
Direction: higher = stronger binding
Endpoint: 6-mer enrichment (R)
AUGAUU: 0.646
UGUGUG: 2.26
CGGUUU: 0.679
AGACAG: 0.953
UAUGCC: 0.667
AGUUAU: 0.623
CGUUAG: 0.729
UUUCCU: 0.588

Series 2
Target: PABPC1L2, full length, GST fusion (mouse, UniProt A0ABA7IW68)
Method: RNAcompete
Form: RNA
Medium: in vitro
Concentration: 20 nM
Notes: 7-mer, probes averaged, single round
Reference: mean of 7-mers
Direction: higher = stronger binding
Endpoint: 7-mer Z-score
Target sequence (chain): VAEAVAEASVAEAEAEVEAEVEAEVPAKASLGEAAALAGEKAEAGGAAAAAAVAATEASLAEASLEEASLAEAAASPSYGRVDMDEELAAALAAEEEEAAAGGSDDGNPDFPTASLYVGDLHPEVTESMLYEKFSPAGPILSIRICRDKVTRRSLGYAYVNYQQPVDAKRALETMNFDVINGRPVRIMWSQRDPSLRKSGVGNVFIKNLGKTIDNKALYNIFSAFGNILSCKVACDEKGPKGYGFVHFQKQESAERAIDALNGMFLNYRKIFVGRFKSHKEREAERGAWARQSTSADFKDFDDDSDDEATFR
UGGCAAU: -0.0971
CACCUAU: -0.242
GUCCCUC: -0.304
UCUGAAG: -0.142
ACUCAUC: -0.273
UGCUUAC: -0.161
CAAUUUG: -0.224
CAUUCGG: -0.05

Series 3
Target: Replicase polyprotein 1ab, main protease (rep, Severe acute respiratory syndrome coronavirus 2, UniProt P0DTD1)
Observed: enzyme activity
Action: inhibitor
Concentration: 20 µM
Notes: hit confirmation
Endpoint: inhibition
NC[C@@H]1O[C@H](C23CC4CC(CC(C4)C2)C3)Cc2c1ccc(O)c2O: 96.1%
NC(=O)c1cc[n+](CC2=C(C(=O)O)N3C(=O)[C@@H](NC(=O)Cc4cccs4)[C@H]3SC2)cc1: 9.4%
CC(C)N(CCC(=O)c1ccc2ccccc2c1)Cc1ccccc1: 43.3% and 78.2%

Series 4
Target: Replicase polyprotein 1ab, nsp13 helicase (rep, Severe acute respiratory syndrome coronavirus 2, UniProt P0DTD1)
Action: inhibitor
Concentration: 20 µM
Endpoint: inhibition
NC(=O)N/N=C/c1ccc([N+](=O)[O-])o1: 1.69%
NCCCC[C@H](NC(=O)[C@@H]1CCCN1C(=O)[C@@H]1CSSC[C@H](NC(=O)CNC(=O)CNC(=O)CN)C(=O)N[C@@H](Cc2ccc(O)cc2)C(=O)N[C@@H](Cc2ccccc2)C(=O)N[C@@H](CCC(N)=O)C(=O)N[C@@H](CC(N)=O)C(=O)N1)C(=O)NCC(N)=O: 1.93%
CC(=O)Oc1cc(C(C)C)c(OCCN(C)C)cc1C: -1.23%
N#Cc1ccccc1OCC(O)CNCCNC(=O)Nc1ccccc1 (centres unmarked): 6.8%
CCOC(=O)N[C@@H]1CC[C@@H]2[C@@H](C1)C[C@H]1C(=O)O[C@H](C)[C@H]1[C@H]2/C=C/c1ccc(-c2cccc(F)c2)cn1: -26%
COc1ccc(N2CCOCC2)c2sc(NC(=O)N3CCC(C)(O)CC3)nc12: 7.58%
NCC(=O)O: 4.16%
CC(NC(C)(C)C)C(=O)c1cccc(Cl)c1 (centres unmarked): 6.82%
CN(C)[C@@H]1CCc2[nH]c3ccc(NC(=O)c4ccc(F)cc4)cc3c2C1: 1.49%
Cn1cc(C2=C(c3ccc(Cl)cc3Cl)C(=O)NC2=O)c2ccccc21: -1.31%
C[C@H](C[C@H](N)C(=O)O)C(=O)O: 5.86%
COc1ccc(/C=C\c2cc(OC)c(OC)c(OC)c2)cc1O: 5.42%
NC(=O)N1C(=O)/C(=C(\O)c2cccs2)c2cc(Cl)ccc21: -0.67%
CCC(=O)N[C@@H]1Cc2ccccc2[C@H](c2ccccc2)C1: 2.73%
Cc1c(-c2ccccc2)oc2c(C(=O)OCCN3CCCCC3)cccc2c1=O: 14.1%
O=C(/C=C/c1ccc(CN(CCO)CCc2c[nH]c3ccccc23)cc1)NO: 7.13%
O=C(O)CCCN1CCC(O[C@@H](c2ccc(Cl)cc2)c2ccccn2)CC1: -2.87%
COc1ccc([C@@H]2CNC(=O)C2)cc1OC1CCCC1: -0.06%
O=C(NC1CC1)c1cc(-c2cccs2)on1: 4.91%
Cc1[nH]nc2ccc(-c3cncc(OC[C@@H](N)Cc4ccccc4)c3)cc12: 10.8%
CC1(COc2ccc3c(c2)ncn3-c2ccc3cccc(N4CCC(N)CC4)c3n2)COC1: 8.1%
NC(=S)N/N=C/c1ccncc1: 4.48%
O=C1CN2Cc3c(ccc(Cl)c3Cl)N=C2N1: 1.21%
COc1c(C)cnc(Cn2cnc3c(Cl)nc(N)nc32)c1C: -0.81%
C[C@H]1C[C@H]2[C@@H]3CCC4=CC(=O)C=C[C@]4(C)[C@H]3C(=O)C[C@]2(C)[C@@]1(O)C(=O)CO: 3.42%

Series 5
Target: Ras GTPase-activating protein-binding protein 1, full length (G3BP1, Homo sapiens, UniProt Q13283)
Sequence of UniProt Q13283 (whole entry, looked up): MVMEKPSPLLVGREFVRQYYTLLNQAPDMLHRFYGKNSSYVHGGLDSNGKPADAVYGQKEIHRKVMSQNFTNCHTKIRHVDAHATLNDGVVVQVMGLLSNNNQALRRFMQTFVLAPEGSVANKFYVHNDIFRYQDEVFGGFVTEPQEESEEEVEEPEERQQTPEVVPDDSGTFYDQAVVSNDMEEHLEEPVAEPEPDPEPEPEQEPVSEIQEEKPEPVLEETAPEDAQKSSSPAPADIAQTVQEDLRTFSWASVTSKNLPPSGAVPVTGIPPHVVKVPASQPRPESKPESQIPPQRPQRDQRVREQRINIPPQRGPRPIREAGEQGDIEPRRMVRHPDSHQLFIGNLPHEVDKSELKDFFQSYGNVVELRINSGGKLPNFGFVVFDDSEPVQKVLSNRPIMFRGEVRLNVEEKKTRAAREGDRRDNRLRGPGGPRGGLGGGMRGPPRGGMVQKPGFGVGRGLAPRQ
Method: RNA Bind-n-Seq
Form: RNA
Medium: in vitro
Concentration: 200 nM
Notes: whole 134-nt RNA, ends assumed
Together with: 150 mM KCl
Reference: input library
Direction: higher = stronger binding
Endpoint: log2 enrichment
All sequences stand within: GGGAGUUCUACAGUCCGACGAUC … UGGAAUUCUCGGGUGUCAAGG
AAGUCCUGUGCUACACAUCGUAUGUACCGAAUCGGGUUUUGGGUUUUGGGUUUUGGAAAGUAUUAUGUUACGCCGUUCGGAUCUGCACUU: -0.893
UAGGUGUUAUCUUCAGGAAGGCACACUGGACCUGCUAAAUUAACAAAUGGAAAGAAAGCGUAAGUACUUGAAGACGUUUACAACUUCAGA: -1.77
UAACUUUAGAGGAGGAUCUGAUGGAUAUGGCAGUGGACGUGGAUUUGGGGAUGGCUAUAAUGGGCAUGGAGGAGGACCUGGAGGUGGCAA: 0.326
CACAGACAACACGCACCCACACAGACACAGAGGCAAGGGGUUGGGAUGGGGACAGGGUGCACAGCAGGGCGGGGUAGGACCCCAGCCCCU: 1.92
UGGAUUAGAGAGAAAUUGAAUUUUUUCUUACUUGAACUCCUACUAAAAAGUGAACUAAAUAUUUUAUUGUAGUAAUGGCAUAGAGGAGCC: -0.274
CCUCAAGUCCUGUGCUACACAUCGUAUGUACCGAAUCGGGGUGGGGUGGUGGAAAGUAUUAUGUUACGCCGUUCGGAUCUGCACUUCCAG: 0.566
AGUCCUGUGCUACACAUCGUAUGUACCGAAUCGGAAAAAGGUUUUUGGAAAAAAAGGAAAGUAUUAUGUUACGCCGUUCGGAUCUGCACU: -1.69
CCUCAAGUCCUGUGCUACACAUCGUAUGUACCGAAUCGGAGGGAGGGGAGGGAAAGUAUUAUGUUACGCCGUUCGGAUCUGCACUUCCAG: 1.08

Mixed results
CCOC(=O)O[C@]1(C(=O)OCCl)CC[C@H]2[C@@H]3CCC4=CC(=O)C=C[C@]4(C)[C@H]3[C@@H](O)C[C@@]21C
viability (HEK-293T/ACE2; concentration not given, 16 (unit not given); reference: vehicle): 107%

For quick reference, copied from above (series 2):
CAAUUUG: -0.224
CACCUAU: -0.242
ACUCAUC: -0.273
UCUGAAG: -0.142
CAUUCGG: -0.05
